Results from different studies.
A part holds a random share of what one study measured. Positions count from the first letter of the parent shown.

Block 1
Target: Prothrombin, mature alpha-thrombin (F2, Homo sapiens, UniProt P00734)
Method: aptamer microarray, sandwich
Form: DNA with 2'F-ANA
Medium: in vitro
Concentration: 200 nM
Setting: whole 15-mer aptamer, many near background
Added: Cy3 exosite-II aptamer, 400 nM
Reading: higher = stronger binding
Oligonucleotide: GGTTGGTGTGGTTGG
| Modification | mean fluorescence intensity |
| --- | --- |
| 2'F-ANA at 1 2 6 8 9 11 12 13 15 | 238 a.u. |
| 2'F-ANA at 1 2 7 9 10 13 15 | 49.9 a.u. |
| 2'F-ANA at 1 2 3 4 5 7 10 15 | 49 a.u. |
| 2'F-ANA at 2 3 4 5 6 8 9 11 12 14 15 | 56.9 a.u. |
| 2'F-ANA at 2 3 5 7 8 10 15 | 52.2 a.u. |
| 2'F-ANA at 1 2 6 10 11 13 | 48.7 a.u. |
| 2'F-ANA at 7 9 10 11 12 14 | 120 a.u. |
| 2'F-ANA at 1 2 5 7 8 10 11 13 15 | 50.8 a.u. |
| 2'F-ANA at 1 3 4 8 11 13 14 | 108 a.u. |
| 2'F-ANA at 2 5 6 8 9 12 14 15 | 60.4 a.u. |
| 2'F-ANA at 2 3 4 6 11 12 13 15 | 543 a.u. |
| 2'F-ANA at 4 8 10 13 15 | 101 a.u. |
| 2'F-ANA at 3 4 8 10 12 14 | 207 a.u. |
| 2'F-ANA at 1 3 4 7 10 11 12 14 | 53.8 a.u. |
| 2'F-ANA at 3 4 6 9 12 | 886 a.u. |
| 2'F-ANA at 4 5 6 8 9 11 12 14 | 44.8 a.u. |
| 2'F-ANA at 2 4 5 7 8 11 13 | 65 a.u. |
| 2'F-ANA at 1 3 6 11 12 13 | 392 a.u. |
| 2'F-ANA at 2 3 5 8 9 10 11 12 13 14 15 | 50.2 a.u. |
| 2'F-ANA at 1 2 3 4 7 9 11 12 13 15 | 188 a.u. |
| 2'F-ANA at 2 3 4 7 8 10 11 12 14 15 | 174 a.u. |
| 2'F-ANA at 1 2 3 4 5 6 9 10 12 14 | 47.8 a.u. |

Block 2
Target: PABPC1L2, full length, GST fusion (mouse, UniProt A0ABA7IW68)
Method: RNAcompete
Form: RNA
Medium: in vitro
Concentration: 20 nM
Setting: 7-mer, probes averaged, single round
Reference: mean of 7-mers
Reading: higher = stronger binding
Target sequence (chain): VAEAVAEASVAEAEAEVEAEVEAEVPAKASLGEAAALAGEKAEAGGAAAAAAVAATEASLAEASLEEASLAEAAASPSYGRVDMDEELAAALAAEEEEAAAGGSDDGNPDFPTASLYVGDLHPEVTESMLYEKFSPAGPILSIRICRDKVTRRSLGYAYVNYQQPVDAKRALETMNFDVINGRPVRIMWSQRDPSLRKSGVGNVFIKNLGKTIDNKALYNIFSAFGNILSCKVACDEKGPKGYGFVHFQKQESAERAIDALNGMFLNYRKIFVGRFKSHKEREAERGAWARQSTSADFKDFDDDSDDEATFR
| Oligonucleotide | 7-mer Z-score |
| --- | --- |
| GGAACUU | -0.0863 |
| CCAUUUG | -0.423 |
| CCCAGAC | -0.255 |
| UAAUCAA | 0.095 |
| GUUCAAA | -0.0699 |
| GGCCAAC | 0.129 |
| CUCACGG | -0.217 |
| GCACGGU | 0.0116 |
| ACUCCAG | -0.0899 |
| UUCCUAC | -0.273 |
| GUGGACG | 0.245 |

Block 3
Target: CCNA1, cyclin fold, Cln2 fusion (human)
Method: yeast growth competition, sequencing
Medium: yeast
Setting: weak parent motif
Reference: not given
Reading: higher = stronger binding
Parent: PKMYT1 docking peptide (human); SFEPRNLLSLFED; partner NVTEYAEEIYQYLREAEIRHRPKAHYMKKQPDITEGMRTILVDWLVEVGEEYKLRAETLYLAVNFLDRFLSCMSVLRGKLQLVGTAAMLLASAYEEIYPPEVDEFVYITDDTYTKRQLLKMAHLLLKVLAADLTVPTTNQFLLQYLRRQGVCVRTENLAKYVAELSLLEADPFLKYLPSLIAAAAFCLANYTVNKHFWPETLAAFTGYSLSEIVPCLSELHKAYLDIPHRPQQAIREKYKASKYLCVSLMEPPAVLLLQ
| Variant | normalised enrichment score |
| --- | --- |
| D13C | -0.00784 |
| L10S | 0.0406 |
| E12D | -0.0105 |
| D13V | 0.00889 |
| E3V | 0.239 |
| E12I | -0.0225 |
| F11I | 0.233 |
| P4R | 0.297 |
| E3L | 0.245 |
| L8T | 0.461 |
| F2I | -0.182 |
| L7G | 0.203 |
| S9G | 0.0832 |
| P4V | 0.00414 |
| L10R | 0.0548 |
| R5I | 0.268 |
| S9D | 0.268 |

Block 4
Target: Centromere-binding protein 1, full length, His-tagged (CBF1, Saccharomyces cerevisiae, UniProt P17106, residues 1-351)
Sequence of UniProt P17106 (whole entry, looked up): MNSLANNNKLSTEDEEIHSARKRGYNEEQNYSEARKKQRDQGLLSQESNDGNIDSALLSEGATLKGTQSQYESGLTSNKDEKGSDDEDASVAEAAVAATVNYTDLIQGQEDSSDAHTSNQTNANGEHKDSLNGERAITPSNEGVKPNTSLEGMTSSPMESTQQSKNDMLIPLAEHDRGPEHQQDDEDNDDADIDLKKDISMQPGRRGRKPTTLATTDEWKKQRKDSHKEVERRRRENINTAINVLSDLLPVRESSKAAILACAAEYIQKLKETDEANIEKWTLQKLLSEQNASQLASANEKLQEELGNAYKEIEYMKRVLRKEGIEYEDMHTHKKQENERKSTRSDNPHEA
Method: competition protein-binding microarray
Form: double-stranded DNA, one strand shown
Medium: in vitro
Concentration: 2 µM
Setting: whole 60-bp probe, lowest competitor level
Added: Pho4 competitor, 0.05 µM
Reading: higher = stronger binding
Constant ends, left off below: … GTCTTGATTCGCTTGACGCTGCTG
| Oligonucleotide | fluorescence intensity [a.u.] |
| --- | --- |
| TGCGCAACAACTTGATCAGTGGGTGTATGTCTAGAA | 69 |
| AAAAGTGTCTGGACCTTTTTTTTCTCATGCGATTTT | 77.2 |
| TGCGCAACAACTTGCATCGTGGGTGTATGTCTAGAA | 82.3 |
| CCGGTAATGGCGGAGCATGTGATGGAGGAATGGGCG | 347 |
| CGGGGTTAAGTTTGTCACCATACTTGCTTGCAGCAG | 72.6 |
| ATTTCATTATCCTGCCCCGTGGCAAGTATTTCTGTG | 156 |
| CTAACGAAGGTTTGGCTAGTGGGTGACAAGCCAAGT | 68 |
| CGGGGTTAAGTTTGTGGAGTGGGTGGCTTGCAGCAG | 61.9 |
| GATGCCGATAATTTTCACATGGATGAGTCGCAGTGT | 102 |
| AAAATCACTTTCCATCACGTGCCGAGGGTGGAACGC | 3840 |
| TGCGCAACAACTTGGATAGTGGGTGTATGTCTAGAA | 66.3 |
| TCCCATGCAAACAAGCATGTGATATCATTGCCAAGT | 737 |
| CACTCTGCTCACCGCTGCGTGCTTTTTGAACAAATT | 82.1 |
| ACCCGGGTGCTTCGTCACGTGCAAATCAAATATGAA | 8150 |
| CGTCCTAGCGATTGACGTGTGGGTGCCATGAGGAAG | 78.1 |
| CTAACGAAGGTTTGGATCGTGGGTGACAAGCCAAGT | 73.9 |
| AAAGCGGTAATTTGTCACCGCACTTCACATATCTAT | 69.6 |
| CTTTCCCGATCTTGTCTGGTGGGTGTAGCACATTTG | 86.6 |
| GCCCGCTCCCGCCGGCTCGTGCCAGCAAATCAGACA | 83.9 |
| AAAGAACTCCCTTCGCATGTGATGAAGGTTATAGGT | 267 |
| GTTTGACTACGTACGACCGTGCCAGACTTGCCGATG | 62.9 |
| GTCTTGTCTCATTTTCACGTGTGATTCCCCACTTCA | 562 |
| GATTGGTTAAAATTGATCATGACAGACGTCTCATCC | 76.2 |
| CTTCTGTAAATTTGTCACCAGACTTGACGCGCCCCG | 90.4 |
| CACTTCACCAAACACAACGTGCTTTCCGTCCAAATG | 139 |

Block 5
Target: Histone acetyltransferase KAT6A, winged helix 2, GST fusion (KAT6A, Homo sapiens, UniProt Q92794, residues 85-181)
Method: protein binding microarray
Form: double-stranded DNA, one strand shown
Medium: in vitro
Concentration: not given
Setting: 8-mer, flanks averaged, mean of 2 arrays, mostly near background
Reference: not given
Reading: higher = stronger binding
Construct (chain): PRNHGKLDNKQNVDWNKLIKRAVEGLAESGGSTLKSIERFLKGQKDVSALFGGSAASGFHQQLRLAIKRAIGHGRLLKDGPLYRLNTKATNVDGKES
| Oligonucleotide | E-score |
| --- | --- |
| AACAGGGT | -0.0578 |
| CCATGTAG | -0.0964 |
| AGCGACCC | 0.122 |
| GATCATCC | -0.0486 |
| CCGAGCCC | 0.151 |
| GGCTCGCA | 0.0799 |
| AGAAACAC | 0.0723 |
| GATACGGC | -0.0317 |
| ACTATTCA | -0.0411 |
| TATAGATA | -0.225 |
| TAGATATA | -0.179 |
| GCCAGAAA | 0.2 |
| TAGAGAAA | -0.065 |
| GCAAAAAC | -0.0155 |
| CATCTTCA | -0.0633 |
| GCCATTAA | -0.00259 |
| TGGGTACA | 0.034 |
| GTCATGAC | 0.0638 |
| ACCAAGGT | -0.0462 |
| CTATACAG | -0.0612 |
| ACAGTAAG | -0.0716 |
| ATGTCAGC | -0.0257 |
| ATATGTGG | -0.0684 |
| CTAGAGCC | -0.146 |
| GATGTTAC | -0.0334 |

Block 6
Target: Interferon regulatory factor 3, full length, phosphomimetic (IRF3, Homo sapiens, UniProt Q14653, residues 1-427, S386D/S396D/S398D/S402D/T404D/S405D)
Method: protein-binding microarray
Form: double-stranded DNA, one strand shown
Medium: in vitro
Concentration: 2540 nM top
Setting: 60-bp whole probe
Added: salmon DNA 0.4 mg/ml
Reference: random background probes
Reading: higher = stronger binding
Constant ends, left off below: GCCTAGCAC … GTCTTGATTCGCTTGACGCTGCTG
Construct (chain): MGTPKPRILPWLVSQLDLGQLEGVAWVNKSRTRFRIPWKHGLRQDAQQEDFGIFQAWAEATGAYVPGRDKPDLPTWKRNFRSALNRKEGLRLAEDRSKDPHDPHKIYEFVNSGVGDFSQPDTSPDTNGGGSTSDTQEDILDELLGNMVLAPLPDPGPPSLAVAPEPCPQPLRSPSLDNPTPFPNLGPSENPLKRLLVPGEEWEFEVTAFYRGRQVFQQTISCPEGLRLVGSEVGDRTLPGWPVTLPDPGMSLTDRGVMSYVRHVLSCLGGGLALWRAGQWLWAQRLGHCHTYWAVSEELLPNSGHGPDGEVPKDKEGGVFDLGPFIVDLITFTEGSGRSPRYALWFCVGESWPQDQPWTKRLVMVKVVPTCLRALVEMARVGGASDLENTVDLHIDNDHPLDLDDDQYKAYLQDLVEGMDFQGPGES
| Oligonucleotide | fitted relative affinity [z-score] |
| --- | --- |
| GACGAATTGAGTATCGAGACGTGCTAG | 0.0615 |
| GACGGTTCCGGTATCGGGACGTGCTAG | 3.78 |
| TAAGGTCTCCTTCTCCTTTAGTGCTAG | 4.05 |
| GATGAACTGGGGTTTCGAGACGTGCTA | 0.131 |
| GACGATATCGGGAATCGAGACGTGCTA | 0.209 |
| TGAGGTTTCGGGTTTCGGTTAGTGCTA | 5.93 |
| TTAGGACTGGACCTTCGGTTAGTGCTA | -0.689 |
| TTAGGACTGGGTCTCAGTTAGTGCTAG | -0.517 |
| GACGGACTGGGTCTCGCGACGTGCTAG | -0.841 |
| CCTCCTCCCTGTTTCCATCTGTGCTAG | 2.74 |
| GACGGACTGGACTTTTGGGACGTGCTA | -0.582 |
| GACGGACTGGGACTGGGGGCGTGCTAG | -0.53 |
| ATAGTGATAGCTCTGGTAAAGTGCTAG | -0.562 |
| TTAGCACTGAGTCTCGATTAGTGCTAG | -0.406 |
| GACGAATTACCTCTGGAGCAGTGCTAG | 0.0933 |
| TCATATATGTATATATGACTGTGCTAG | 0.727 |
| GACGATTCCAGTTTCGGGACGTGCTAG | 3.92 |
| TCAAACTTTTTTCTGATACTGTGCTAG | 0.466 |
| TTAGGACTGCTACTACTTTAGTGCTAG | -0.313 |
| TTAGGACTGGACACTGGTTTAGTGCTA | -0.807 |
| TTAGATTTCAGTATCGATTGGTGCTAG | 2.23 |
| AGTGATAACTTTTTTTTTTCGTGCTAG | 0.192 |
| GACGGTTTCGGGTATCCGGACGTGCTA | 4.94 |

Some of these lines once more (block 3):
| Variant | normalised enrichment score |
| --- | --- |
| D13C | -0.00784 |
| L10S | 0.0406 |
| E12D | -0.0105 |
| D13V | 0.00889 |
| E3V | 0.239 |
| E12I | -0.0225 |
| F11I | 0.233 |
| P4R | 0.297 |
| E3L | 0.245 |
| L8T | 0.461 |
| F2I | -0.182 |
| L7G | 0.203 |
| S9G | 0.0832 |
| P4V | 0.00414 |
| L10R | 0.0548 |
| R5I | 0.268 |
| S9D | 0.268 |
